Results gathered from unrelated publications.
“And” joins repeats or separate records; there may be more than shown. ± marks the error that the study gave.
CASP8: Caspase-8 (CASP8, Homo sapiens, UniProt Q14790)
UniProt Q14790, sequence (whole entry, looked up): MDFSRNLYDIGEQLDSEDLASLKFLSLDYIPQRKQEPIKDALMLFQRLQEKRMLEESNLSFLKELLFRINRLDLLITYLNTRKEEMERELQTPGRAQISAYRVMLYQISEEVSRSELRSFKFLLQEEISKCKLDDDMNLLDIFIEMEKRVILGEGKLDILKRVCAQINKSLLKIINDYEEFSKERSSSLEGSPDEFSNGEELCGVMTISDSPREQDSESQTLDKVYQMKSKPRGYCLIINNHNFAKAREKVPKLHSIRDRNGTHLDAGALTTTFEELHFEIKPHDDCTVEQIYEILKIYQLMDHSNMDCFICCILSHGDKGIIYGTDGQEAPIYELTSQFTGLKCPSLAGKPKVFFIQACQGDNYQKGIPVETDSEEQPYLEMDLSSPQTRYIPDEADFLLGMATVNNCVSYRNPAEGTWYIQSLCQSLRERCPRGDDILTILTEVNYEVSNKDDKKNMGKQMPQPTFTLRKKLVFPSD
UniProt P45983, sequence (whole entry, looked up): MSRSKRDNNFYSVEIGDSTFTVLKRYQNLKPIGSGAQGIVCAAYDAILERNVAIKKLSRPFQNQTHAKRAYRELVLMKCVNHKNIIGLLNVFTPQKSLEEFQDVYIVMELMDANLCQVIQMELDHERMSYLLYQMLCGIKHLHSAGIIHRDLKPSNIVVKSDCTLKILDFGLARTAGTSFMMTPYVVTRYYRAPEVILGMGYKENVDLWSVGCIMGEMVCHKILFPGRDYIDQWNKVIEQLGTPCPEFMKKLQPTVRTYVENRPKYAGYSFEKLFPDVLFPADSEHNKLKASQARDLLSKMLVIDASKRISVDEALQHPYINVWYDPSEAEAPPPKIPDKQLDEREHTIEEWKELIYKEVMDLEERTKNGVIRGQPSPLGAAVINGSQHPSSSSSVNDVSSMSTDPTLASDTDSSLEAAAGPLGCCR

SMILES | tested on | test | test system | setting | scale | endpoint | value
O=C(C[Se]C(=O)c1cccnc1Nc1cccc(C(F)(F)F)c1)Nc1cccc(C(F)(F)F)c1 | NCI60 ovarian subpanel | cell growth |  | 10 µM, 48 h, one-dose |  | mean growth percent | -84.2%
COC(=O)c1cc(NC2=NC(=O)C(=Cc3ccc(N(C)C)cc3)S2)ccc1OC(C)=O | A549 | item: EYA3 mRNA |  | 2.93 µM (IC50), 24 h | relative to: DMSO | fold change | 0.026
CCN(C(=O)c1cc(F)ccc1Oc1nncnc1N1CCC2(C1)CN([C@H](CCCN(C)CCOC)C(C)C)C2)C(C)C | IMR-90 | cell growth or viability |  | 7 days |  | GI50 | > 10000 nM
Nc1ncc(-c2cc(-c3cnn(CC(F)(F)F)c3)ncc2F)nc1C(=O)NC1CNCC(F)C1 (stereo not drawn) | GSK3B | KINOMEscan |  | 1 µM | relative to: DMSO control | remaining binding | 100%
CCCC[C@H](NC(=O)COCCOCCNC(=O)CN1CCN(CC(=O)O)CCN(CC(=O)O)CC1)C(=O)N[C@H]1CC(=O)NCCCC[C@@H](C(N)=O)NC(=O)[C@H](Cc2c[nH]c3ccccc23)NC(=O)[C@H](CCCNC(=N)N)NC(=O)[C@@H](Cc2ccccc2)NC(=O)[C@H](Cc2c[nH]cn2)NC1=O [technetium-99m labelled] |  |  | C57 mouse, muscle | intravenous, 0.037 MBq, 0.5 h |  | tissue uptake | 0.93 ± 0.2 %ID/g
O=C(Nc1nnc2c1c(-c1ccc(Cl)cc1)nc1sc(=Cc3ccco3)c(=O)n12)c1ccccc1 (mixture of isomers) | SF-539 | SRB |  | 10 µM, NCI60 single-dose screen | relative to: untreated | cell growth | 46.4%
C#CCOC(=O)[C@]1(C)C=C(C(=O)OC(C)(C)C)C(=O)CC1 | MAPK8 (Homo sapiens, UniProt P45983) | enzyme activity, D-SENSOR |  | 0.1829 µM, mean of replicates |  | normalized kinase activity | 1.03
CCN(CC)CC(=O)Nc1cccc(-n2cc(-c3ccc4ccc(-c5cn(-c6cccc(NC(=O)CN(CC)CC)c6)nn5)cc4c3)nn2)c1 | RCC4 | PCR angiogenesis array, item: CXCL6 |  | 5 x IC50, 4 h, normoxia | relative to: untreated | fold regulation | -1.36
CCCC[C@H](NC(=O)CCCCCCCNC(=O)CN1CCN(CC(=O)O)CCN(CC(=O)O)CC1)C(=O)N[C@H]1CC(=O)NCCCC[C@@H](C(N)=O)NC(=O)[C@H](Cc2c[nH]c3ccccc23)NC(=O)[C@H](CCCNC(=N)N)NC(=O)[C@@H](Cc2ccccc2)NC(=O)[C@H](Cc2c[nH]cn2)NC1=O [technetium-99m labelled] |  |  | C57 mouse, spleen | intravenous, 0.037 MBq, 4 h |  | tissue uptake | 0.01 ± 0.07 %ID/g
CCCCCCc1cccc([C@H](O)C[C@H](CO)NC(=O)CCCCCCCCCCBr)c1 | HeLa | CERT activity, HPLC-MS/MS lipidomics, item: ceramide 24 |  | 1 µM, 24 h, not cell-number normalised |  | ceramide level | 12500 pmol/sample and 10800 pmol/sample and 13400 pmol/sample
CN(C)CCN1CCN(c2ccc3nc(-c4ccc5nc(-c6ccc(C(F)(F)F)cc6)[nH]c5c4)[nH]c3c2)CC1 | SF-295 | SRB |  | 10 µM, 48 h |  | growth percent | 60.7%
CC(C)c1ccc(N(C)c2ccc3c(c2)OCC[C@H]3CNc2cnccc2C(=O)O)cc1 | MKN-45 | cell viability, CellTiter-Glo |  | 7 days |  | IC50 | 13.5 nM
CC(=O)N[C@H](CCc1ccccc1)C(=O)N[C@@H](CCC(=O)O)C(=O)N[C@@H](CCC(N)=O)C(=O)N[C@@H](CC(=O)O)C(=O)COC(=O)c1c(C)cccc1C | CASP8 | enzyme activity, inhibitor |  |  |  | kinact/KI | 134000 M⁻¹ s⁻¹
Cn1ncc2cc(-c3cncc(Cl)c3N3CCC4(CCNC4=O)CC3)ccc21 | LS174T | gene expression, microarray, item: NFE2L2 mRNA |  | concentration not given, 24 h | relative to: untreated cells | log2 fold change | 2.44
O=C(C[Se]C(=O)c1cc2ccccc2o1)Nc1cccc(C(F)(F)F)c1 | NCI60 non-small-cell lung subpanel | cell growth |  | 10 µM, 48 h, one-dose |  | mean growth percent | -87.4%
COc1ccccc1-c1ccncc1C(=O)Nc1nnc(OCc2ccc(Cl)cc2)s1 | MDA-MB-231 (BRCA1 wild-type) | colony formation |  | 0.75 µM | relative to: untreated control | colony survival | 91.8%
O=C(C[Se]C(=O)c1ccccc1Nc1ccccc1)Nc1cccc(C(F)(F)F)c1 | NCI60 ovarian subpanel | cell growth, inhibitor |  | five-dose |  | GI50 | 1680 nM
C=CC(=O)N1[C@@H](c2ccc3c(c2)OCO3)c2[nH]c3ccccc3c2C[C@H]1C(=O)NC1CC1 | rat DRG neurons |  |  | 1.111 µM, 48 h, with: vincristine 40 nM |  | mean neuron degeneration | 76.9%
Cc1ccc([N+](=O)[O-])cc1S(=O)(=O)N(C)/N=C/c1cnc2ccc(Br)cn12 | HuT78 |  |  | 200 nM |  | annexin V+/PI+ cells | 25.5%
Nc1ncn([C@@H]2O[C@H](CO)[C@@H](O)[C@H]2O)c(=O)n1 | AML blasts, primary, RUNX1-mutated | CD34+ blast expansion |  | 90 nM, HUVEC co-culture |  | inhibition | 0%
CC(=O)N(C)Cc1cccc(-c2cc3c(c(C(F)(F)F)c2)CCCC3N(C)C(=O)CCOCCOCCC(=O)N(C)C2CCCc3c2cc(-c2cccc(CN(C)C(C)=O)c2)cc3C(F)(F)F)c1 (stereo not drawn) | CHO wild type | CHOP::GFP reporter, activator, flow cytometry |  |  |  | EC50 | 15000 nM

SMILES | tested on | test | test system | setting | scale | endpoint | value
O=C(C[Se]C(=O)c1ccc2ccccc2c1)Nc1cccc(C(F)(F)F)c1 | NCI60 non-small-cell lung subpanel | cell growth |  | 10 µM, 48 h, one-dose |  | mean growth percent | -86.1%
N#Cc1cccc(/C=C/C(=O)c2ccc(O)cc2)c1 | U-87 MG | item: RPS18 |  | concentration not given | relative to: untreated | fold change | 0.043
Cc1c(Cl)cccc1Nc1ccccc1C(=O)[Se]CC(=O)Nc1cccc(C(F)(F)F)c1 | NCI60 ovarian subpanel | cell growth, inhibitor |  | five-dose |  | GI50 | 1690 nM
COP(=O)(OC)OCC1(O)O[C@H](COP(=O)(O)O)[C@@H](O)[C@@H]1O (stereo partly drawn) | HepG2 sgCTRL | CCK-8 |  | concentration not given | relative to: control | cell proliferation | 44.3% and 48.4% and 41%
Cc1ncsc1-c1ccc(C(C)NC(=O)C2CC(O)CN2C(=O)C(NC(=O)CCCCCCCCCCN2CCCC(Nc3ncc(Cl)c(Nc4ccccc4S(=O)(=O)C(C)C)n3)C2)C(C)(C)C)cc1 (stereo not drawn) | 22Rv1 | RNA-seq, item: PLEKHG2 mRNA |  | concentration not given | relative to: DMSO | log2 fold change | -1.02
O=C(N1CCCC1)n1cc(-c2ccc(-c3ccccc3)cc2)nn1 | mouse T cells | N-terminal labelling proteomics, item: Larp1 N-terminal peptide |  | 0.001 µM, 6 h | relative to: DMSO | SILAC ratio per peptide | 1.02 and 1.39
COc1ccccc1[C@H](Cn1c(=O)n(C(C)(C)C(N)=O)c(=O)c2c(C)c(-c3ncco3)sc21)OC1CCOCC1 | NCI-H1355 | cell proliferation, inhibitor |  | 168 h |  | EC50 | 58 nM
C=C(NC(=O)c1csc(-c2nc3c(cc2O)-c2nc(cs2)C(=O)NC(C(C)O)C(=O)NC(=C(C)OC)c2nc(cs2)C(=O)NC2c4nc(cs4)C(=O)NC(COC(=O)c4c5c6c(cccc6n4O)COC(=O)C(OC4CC(C)(O)C(N(C)C)C(C)O4)C2OC5)c2nc-3cs2)n1)C(N)=O (stereo not drawn) |  |  | Sprague-Dawley rats, male, plasma | intravenous infusion, 6 mg/kg, day 7, multiple dosing |  | AUC(0-inf) | 1600 ng·h/mL
CNS(=O)(=O)Nc1nccc(Cc2c(C)c3ccc(Oc4ncccc4F)cc3oc2=O)c1F | MEG-01 | cell viability |  | 7 days |  | IC50 | > 1000 nM
Cc1nc(=S)[nH]c(C)c1/N=N/c1nnc(S)s1 | Vero | cell viability, MTT |  | 1.25 µg/mL |  | inhibition | 14.4 ± 0.869%
Cc1cc(Cl)cc(-c2ccnc3cc(CN4C(=O)C5C(C4=O)C5(C)C)sc23)c1C[C@@H]1CNCCO1 (stereo partly drawn) | CHP-212 parental (wild-type USP7) | annexin V-PI flow cytometry |  | 1 µM, 48 h |  | apoptotic cells (early plus late) | 37.8% and 45.6% and 44.5% and 62.4% and 54.5% and 50%
Cc1ccc(-n2cc(CSc3nc4ccccc4n3Cc3cn(-c4ccc(C)cc4)nn3)nn2)cc1 | Caco-2 | MTT |  | 125 ppm |  | cytotoxicity | 87.7%
CO[C@@H]1[C@@H](OC(N)=O)[C@@H](O)[C@H](Oc2ccc3c(O)c(NC(=O)c4ccc(O)c(CC=C(C)C)c4)c(=O)oc3c2C)OC1(C)C | HCT-116 BRCA2 wild-type |  |  | 300 µM, replicate A | relative to: untreated | colony survival | 65.1%
Cn1ncc(-c2ccc3c(=O)[nH]nc(CN)c3c2)c1-c1c(F)c(Cl)cc(OC2CC2)c1C#N | HuT78 | cell viability, inhibitor, CellTiter-Glo |  | 120 h, baseline-subtracted |  | IC50 | 80 nM
CN1CCCNC(=O)c2cccc(c2)C(=O)NCCCN(C)CCCNc2cccc3c2C(=O)c2cccc(c2C3=O)NCCC1 | SAS | RNA-Seq, item: ZNF207 mRNA |  | 1 µM, 6 h | relative to: untreated cells | log2 fold change | -0.806
CC(=O)N[C@@H](CC(C)C)C(=O)N[C@@H](CCC(N)=O)C(=O)N[C@@H](CCC(=O)O)C(=O)N[C@@H](CC(=O)O)C(=O)COC(=O)c1c(C)cccc1C | CASP8 | enzyme activity, inhibitor |  |  |  | kinact/KI | 364000 M⁻¹ s⁻¹
O=C(C[Se]C(=O)c1cc2ccccc2s1)Nc1cccc(C(F)(F)F)c1 | NCI60 ovarian subpanel | cell growth, inhibitor |  | five-dose |  | GI50 | 1540 nM
COC1CN([C@H]2CC[C@H]([C@@]3(C)Oc4c(Cl)cc(C(=O)NCc5c(SC)cc(C)[nH]c5=O)c(C)c4O3)CC2)C1 |  | RNA-seq, item: PTPRB | human, whole blood | dose not given, 24 h | relative to: pretreatment baseline | log2 fold change | 1.01
CC(=O)NCCCN(C)CCCNc1cccc2c1C(=O)c1cccc(NCCCN(C)CCCNC(C)=O)c1C2=O | SAS | RNA-seq, item: MT-TW mRNA |  | 1 µM, 24 h | relative to: untreated cells | log2 fold change | 1.29
C=CC(=O)Nc1cccc(Cn2ncc3cnc(Nc4cnn(CCOC)c4)nc32)c1 | human IKK-beta | KINOMEscan |  | 100 nM | relative to: control | binding | 98%
CCOc1cncc(-c2ccc(NC(=O)C3(c4ccnc(NS(=O)(=O)C5CC5)n4)CCOCC3)nc2)n1 | MOLM-6 | cell proliferation, CellTiter-Glo |  | 72 h, myeloid haematological cancer |  | IC50 | 20 nM

Excerpt of the above:
SMILES | tested on | test | test system | setting | scale | endpoint | value
Cc1nc(=S)[nH]c(C)c1/N=N/c1nnc(S)s1 | Vero | cell viability, MTT |  | 1.25 µg/mL |  | inhibition | 14.4 ± 0.869%
COc1ccccc1-c1ccncc1C(=O)Nc1nnc(OCc2ccc(Cl)cc2)s1 | MDA-MB-231 (BRCA1 wild-type) | colony formation |  | 0.75 µM | relative to: untreated control | colony survival | 91.8%
Cc1ccc(-n2cc(CSc3nc4ccccc4n3Cc3cn(-c4ccc(C)cc4)nn3)nn2)cc1 | Caco-2 | MTT |  | 125 ppm |  | cytotoxicity | 87.7%
Cc1ncsc1-c1ccc(C(C)NC(=O)C2CC(O)CN2C(=O)C(NC(=O)CCCCCCCCCCN2CCCC(Nc3ncc(Cl)c(Nc4ccccc4S(=O)(=O)C(C)C)n3)C2)C(C)(C)C)cc1 (stereo not drawn) | 22Rv1 | RNA-seq, item: PLEKHG2 mRNA |  | concentration not given | relative to: DMSO | log2 fold change | -1.02
